# Published values collected from several papers.
# Protocols differ between the studies behind these lines.
# MARK3: MAP/microtubule affinity-regulating kinase 3 (MARK3, Homo sapiens, UniProt P27448)
# UniProt P27448, sequence (whole entry, looked up): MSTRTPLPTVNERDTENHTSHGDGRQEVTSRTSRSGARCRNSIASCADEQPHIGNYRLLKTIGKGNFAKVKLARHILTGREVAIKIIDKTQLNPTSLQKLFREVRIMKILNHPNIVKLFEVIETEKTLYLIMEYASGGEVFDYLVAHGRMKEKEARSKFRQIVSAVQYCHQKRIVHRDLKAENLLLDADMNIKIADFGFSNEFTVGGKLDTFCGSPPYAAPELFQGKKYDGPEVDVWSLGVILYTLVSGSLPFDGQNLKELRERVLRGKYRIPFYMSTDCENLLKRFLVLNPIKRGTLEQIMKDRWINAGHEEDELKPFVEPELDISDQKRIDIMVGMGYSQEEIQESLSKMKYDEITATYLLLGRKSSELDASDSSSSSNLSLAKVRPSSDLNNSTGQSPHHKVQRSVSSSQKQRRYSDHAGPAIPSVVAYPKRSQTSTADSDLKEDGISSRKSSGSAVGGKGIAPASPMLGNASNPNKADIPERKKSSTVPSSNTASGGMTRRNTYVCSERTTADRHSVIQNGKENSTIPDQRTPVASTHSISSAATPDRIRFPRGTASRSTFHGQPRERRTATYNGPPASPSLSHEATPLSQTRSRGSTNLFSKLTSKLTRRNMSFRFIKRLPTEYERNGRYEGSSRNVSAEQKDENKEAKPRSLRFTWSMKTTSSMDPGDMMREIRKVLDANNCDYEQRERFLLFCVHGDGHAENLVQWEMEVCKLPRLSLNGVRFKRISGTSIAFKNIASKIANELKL
# EIF2AK2: Interferon-induced, double-stranded RNA-activated protein kinase (EIF2AK2, Homo sapiens, UniProt P19525)
# UniProt P19525, sequence (whole entry, looked up): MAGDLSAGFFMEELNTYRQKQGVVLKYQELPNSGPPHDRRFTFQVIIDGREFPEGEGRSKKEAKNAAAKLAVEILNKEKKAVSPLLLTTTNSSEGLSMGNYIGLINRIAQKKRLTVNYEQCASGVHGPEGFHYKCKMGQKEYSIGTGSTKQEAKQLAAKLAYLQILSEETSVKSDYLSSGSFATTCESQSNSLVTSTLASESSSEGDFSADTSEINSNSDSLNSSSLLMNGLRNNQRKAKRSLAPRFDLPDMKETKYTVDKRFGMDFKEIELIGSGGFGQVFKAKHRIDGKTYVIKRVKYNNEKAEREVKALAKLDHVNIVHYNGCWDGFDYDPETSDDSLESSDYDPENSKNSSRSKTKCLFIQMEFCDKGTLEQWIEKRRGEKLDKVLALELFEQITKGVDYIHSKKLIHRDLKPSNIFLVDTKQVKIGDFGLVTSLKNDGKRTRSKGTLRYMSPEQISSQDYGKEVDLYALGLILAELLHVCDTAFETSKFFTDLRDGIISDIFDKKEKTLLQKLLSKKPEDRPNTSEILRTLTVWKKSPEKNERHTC
# UniProt P78362, sequence (whole entry, looked up): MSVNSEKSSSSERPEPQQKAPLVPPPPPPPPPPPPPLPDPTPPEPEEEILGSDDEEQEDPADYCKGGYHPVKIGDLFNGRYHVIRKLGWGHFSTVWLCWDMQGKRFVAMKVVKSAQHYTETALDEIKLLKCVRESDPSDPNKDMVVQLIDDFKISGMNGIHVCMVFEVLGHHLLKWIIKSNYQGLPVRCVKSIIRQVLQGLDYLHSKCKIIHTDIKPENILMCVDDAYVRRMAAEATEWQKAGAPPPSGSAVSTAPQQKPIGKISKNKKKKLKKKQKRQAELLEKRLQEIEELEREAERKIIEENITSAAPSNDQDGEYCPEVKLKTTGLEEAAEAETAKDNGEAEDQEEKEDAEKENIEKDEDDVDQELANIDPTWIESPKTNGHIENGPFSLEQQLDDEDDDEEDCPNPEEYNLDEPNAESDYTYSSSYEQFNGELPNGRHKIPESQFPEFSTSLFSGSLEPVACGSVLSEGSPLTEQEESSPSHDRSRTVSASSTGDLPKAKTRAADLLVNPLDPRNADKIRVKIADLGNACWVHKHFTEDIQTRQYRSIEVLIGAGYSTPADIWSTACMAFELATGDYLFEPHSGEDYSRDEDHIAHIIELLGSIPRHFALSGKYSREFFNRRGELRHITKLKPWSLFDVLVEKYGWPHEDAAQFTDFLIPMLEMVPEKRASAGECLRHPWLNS
# UniProt O60566, sequence (whole entry, looked up): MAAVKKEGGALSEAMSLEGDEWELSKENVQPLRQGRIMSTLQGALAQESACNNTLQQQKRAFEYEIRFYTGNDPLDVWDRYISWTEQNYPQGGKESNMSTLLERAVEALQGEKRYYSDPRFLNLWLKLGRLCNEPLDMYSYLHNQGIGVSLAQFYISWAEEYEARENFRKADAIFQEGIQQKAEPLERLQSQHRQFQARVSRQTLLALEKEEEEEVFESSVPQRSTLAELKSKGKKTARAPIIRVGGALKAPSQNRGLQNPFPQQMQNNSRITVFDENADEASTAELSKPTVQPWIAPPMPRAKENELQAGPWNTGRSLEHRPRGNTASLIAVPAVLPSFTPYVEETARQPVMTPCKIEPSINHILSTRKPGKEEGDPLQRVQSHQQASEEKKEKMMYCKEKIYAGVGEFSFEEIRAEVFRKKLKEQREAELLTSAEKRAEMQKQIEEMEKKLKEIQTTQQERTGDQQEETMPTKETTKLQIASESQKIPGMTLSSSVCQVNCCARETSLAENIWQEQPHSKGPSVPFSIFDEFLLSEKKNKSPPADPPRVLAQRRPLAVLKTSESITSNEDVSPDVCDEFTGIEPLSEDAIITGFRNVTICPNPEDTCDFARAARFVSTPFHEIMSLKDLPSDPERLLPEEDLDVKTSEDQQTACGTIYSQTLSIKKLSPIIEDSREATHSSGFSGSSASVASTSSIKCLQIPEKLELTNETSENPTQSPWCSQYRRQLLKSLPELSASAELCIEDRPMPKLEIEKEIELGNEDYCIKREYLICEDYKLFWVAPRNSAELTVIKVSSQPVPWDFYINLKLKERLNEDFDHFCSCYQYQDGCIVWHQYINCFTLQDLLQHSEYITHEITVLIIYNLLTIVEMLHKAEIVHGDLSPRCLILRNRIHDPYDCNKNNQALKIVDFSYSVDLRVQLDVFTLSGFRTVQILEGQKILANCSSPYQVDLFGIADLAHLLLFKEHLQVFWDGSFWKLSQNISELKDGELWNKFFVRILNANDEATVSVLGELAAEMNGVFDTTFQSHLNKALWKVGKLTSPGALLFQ
# UniProt P51812, sequence (whole entry, looked up): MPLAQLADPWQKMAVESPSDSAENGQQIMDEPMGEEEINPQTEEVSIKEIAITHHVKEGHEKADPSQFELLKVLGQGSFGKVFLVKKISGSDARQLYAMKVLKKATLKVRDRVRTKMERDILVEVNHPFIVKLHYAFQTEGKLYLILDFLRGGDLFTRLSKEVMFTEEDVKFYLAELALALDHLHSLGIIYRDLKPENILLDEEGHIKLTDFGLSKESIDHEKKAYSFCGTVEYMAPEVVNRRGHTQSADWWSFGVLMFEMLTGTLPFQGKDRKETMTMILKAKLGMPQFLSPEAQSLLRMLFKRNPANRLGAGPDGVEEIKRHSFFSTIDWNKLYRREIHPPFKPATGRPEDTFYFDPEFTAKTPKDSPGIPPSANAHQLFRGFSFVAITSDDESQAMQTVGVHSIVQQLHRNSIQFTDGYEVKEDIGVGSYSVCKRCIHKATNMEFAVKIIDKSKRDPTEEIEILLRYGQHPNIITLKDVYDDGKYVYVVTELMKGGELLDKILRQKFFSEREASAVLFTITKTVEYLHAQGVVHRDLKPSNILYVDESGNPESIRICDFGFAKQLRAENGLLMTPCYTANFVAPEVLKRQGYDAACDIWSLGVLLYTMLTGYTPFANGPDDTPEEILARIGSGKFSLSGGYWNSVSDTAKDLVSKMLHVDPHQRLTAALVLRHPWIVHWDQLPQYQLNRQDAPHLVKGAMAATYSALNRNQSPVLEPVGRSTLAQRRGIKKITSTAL
Structure (SMILES),target,observed,mode,method,tested at,measurement,result
C=CC(=O)N1CCC(COCC(=O)N2CCN(c3nc(-c4cnc(N)nc4C(F)F)nc(N4CCOC[C@@H]4C)n3)CC2)CC1,MARK3,binding,,competition with immobilised ligand,1 µM,remaining binding,100%
[2H]c1c([2H])c([C@]2([2H])CCCN2C(=O)C(C)(C)Oc2ccc3cn[nH]c3c2)c([2H])c([2H])c1C([2H])([2H])[2H],"SRPK2 (Homo sapiens, UniProt P78362)",binding,,competition with immobilised ligand,1 µM,remaining binding,99%
CCCCC(=O)Nc1ccc(-c2ccc3ncn(CCC)c(=O)c3c2)cn1,EIF2AK2,binding,,competition with immobilised ligand,0.5 µM,remaining binding,90%
Cc1cc([C@@H](C)Nc2ccccc2C(=O)O)c2nc(N3CCC(F)(F)CC3)c(C#N)c(=O)n2c1,MARK3,binding,,competition with immobilised ligand,1 µM,remaining binding,100%
CNc1ncc2c(/C=C/C(=O)N3CCC(OC)CC3)nn(Cc3cccc(C(F)(F)F)c3)c2n1,"BUB1B (Homo sapiens, UniProt O60566)",enzyme activity,inhibitor,radiometric,1 µM,remaining activity,96%
COc1cc(-c2cncc3c2CN(C)Cc2cc(N4CCNCC4)ccc2-3)cc(OC)c1OC,"RPS6KA3 (Homo sapiens, UniProt P51812)",enzyme activity,inhibitor,,1 µM,remaining activity,101%
C1=C/COCc2cc(ccc2OCCN2CCCC2)Nc2nccc(n2)-c2cccc(c2)COC/1,EIF2AK2,cell-free assay,,,0.1 µM,remaining signal,90%

# Excerpt of the above:
Structure (SMILES),target,observed,mode,method,tested at,measurement,result
Cc1cc([C@@H](C)Nc2ccccc2C(=O)O)c2nc(N3CCC(F)(F)CC3)c(C#N)c(=O)n2c1,MARK3,binding,,competition with immobilised ligand,1 µM,remaining binding,100%
